Measured values pooled from the literature.
Each line is one published result; not all experiments were run side by side. ± gives the spread as reported.

| SMILES | test | test system | setting | scale | quantity | value |
| --- | --- | --- | --- | --- | --- | --- |
| N=C(N)NCCC[C@@H]1NC(=O)[C@H](CCCCNC(=O)CCOCCOCCOCCOCCNC(=O)CC[C@H](NC(=O)CCOCCOCCOCCOCCNC(=O)CC[C@H](NC(=O)CN2CCN(CC(=O)O)CCN(CC(=O)O)CCN(CC(=O)O)CC2)C(=O)NCCOCCOCCOCCOCCC(=O)N[C@@H](CCC(=O)NCCOCCOCCOCCOCCC(=O)NCCCC[C@@H]2NC(=O)[C@@H](Cc3ccccc3)NC(=O)[C@H](CC(=O)O)NC(=O)CNC(=O)[C@H](CCCNC(=N)N)NC2=O)C(=O)NCCOCCOCCOCCOCCC(=O)NCCCC[C@@H]2NC(=O)[C@@H](Cc3ccccc3)NC(=O)[C@H](CC(=O)O)NC(=O)CNC(=O)[C@H](CCCNC(=N)N)NC2=O)C(=O)NCCOCCOCCOCCOCCC(=O)NCCCC[C@@H]2NC(=O)[C@@H](Cc3ccccc3)NC(=O)[C@H](CC(=O)O)NC(=O)CNC(=O)[C@H](CCCNC(=N)N)NC2=O)NC(=O)[C@@H](Cc2ccccc2)NC(=O)[C@H](CC(=O)O)NC(=O)CNC1=O [indium-111 labelled] |  | female athymic nude mice, lungs | intravenous, 3 µCi, 24 h, U-87 MG glioma xenograft |  | tissue uptake | 1.62 ± 0.21 %ID/g |
| CCCC[C@H](NC(=O)CNC(=O)[C@H](CO)NC(=O)CNC(=O)c1ccc(NN)nc1)C(=O)N[C@H]1CC(=O)NCCCC[C@@H](C(N)=O)NC(=O)[C@H](Cc2c[nH]c3ccccc23)NC(=O)[C@H](CCCNC(=N)N)NC(=O)[C@@H](Cc2ccccc2)NC(=O)[C@H](Cc2c[nH]cn2)NC1=O [technetium-99m labelled] |  | C57 mouse, B16/F1 melanoma, stomach | intravenous, 2 h |  | uptake | 0.48 ± 0.39 %ID/g |
| N=C(N)NCCC[C@@H]1NC(=O)[C@H](CCCCNC(=O)CC[C@H](NC(=O)CCOCCOCCOCCOCCNC(=O)CN2CCN(CC(=O)O)CCN(CC(=O)O)CCN(CC(=O)O)CC2)C(=O)NCCCC[C@@H]2NC(=O)[C@@H](Cc3ccccc3)NC(=O)[C@H](CC(=O)O)NC(=O)CNC(=O)[C@H](CCCNC(=N)N)NC2=O)NC(=O)[C@@H](Cc2ccccc2)NC(=O)[C@H](CC(=O)O)NC(=O)CNC1=O [indium-111 labelled] |  | athymic nude mice, female, U-87 MG glioma xenograft, tumour and kidney | intravenous, 72 h | relative to: tumour over kidney | tumour to tissue ratio | 1.08 ± 0.14 |
| CCCC[C@H](NC(=O)CCCCCCCNC(=O)c1ccc(NN)nc1)C(=O)N[C@H]1CC(=O)NCCCC[C@@H](C(N)=O)NC(=O)[C@H](Cc2c[nH]c3ccccc23)NC(=O)[C@H](CCCNC(=N)N)NC(=O)[C@@H](Cc2ccccc2)NC(=O)[C@H](Cc2c[nH]cn2)NC1=O [technetium-99m labelled] |  | C57 mouse, B16/F1 melanoma, spleen | intravenous, 24 h |  | uptake | 0.05 ± 0.04 %ID/g |
| CSCC[C@H](NC(=O)[C@H](CC(C)C)NC(=O)[C@H](Cc1c[nH]cn1)NC(=O)CNC(=O)[C@@H](NC(=O)[C@H](C)NC(=O)[C@H](Cc1c[nH]c2ccccc12)NC(=O)[C@H](CCC(N)=O)NC(=O)CCCCCNC(=O)CNC(=O)CNC(=O)CNC(=O)CSC(C)=O)C(C)C)C(N)=O [technetium-99m labelled] |  | Swiss mouse, bone | intravenous, 18.5 MBq, 90 min |  | tissue uptake | 0.11 ± 0.05 %ID/g |
| N[C@@H](Cc1ccc(O)cc1)C(=O)N[C@@H](Cc1ccccc1)C(=O)N[C@@H](Cc1ccccc1)C(=O)NCC(=O)NC12CC3CC(CC(C3)C1)C2 |  | mouse | intravenous, 100 µg, day 14 | relative to: untreated mice | organ coefficient | no effect |
| CCCC[C@H](NC(=O)CNC(=O)CNC(=O)c1ccc(NN)nc1)C(=O)N[C@H]1CC(=O)NCCCC[C@@H](C(N)=O)NC(=O)[C@H](Cc2c[nH]c3ccccc23)NC(=O)[C@H](CCCNC(=N)N)NC(=O)[C@@H](Cc2ccccc2)NC(=O)[C@H](Cc2c[nH]cn2)NC1=O [technetium-99m labelled] |  | C57 mouse, B16/F1 melanoma | 2 h, added: NDP-MSH blockade | relative to: tumour over liver | uptake ratio | 0.87 |
| C[C@H](NC(=O)CNC(=O)[C@H](CCC(=O)O)NC(=O)[C@H](CCC(=O)O)NC(=O)[C@H](CC(=O)O)NC(=O)[C@@H]1CCCN1C(=O)[C@H](Cc1ccccc1)NC(=O)[C@H](CS)NC(=O)[C@H](Cc1ccc(O)cc1)NC(=O)CCCNC(=O)CNC(=O)CNC(=O)[C@@H](C)NC(=O)CN)C(=O)N[C@@H](CS)C(=O)N[C@@H](Cc1ccc(O)cc1)C(N)=O [technetium-99m labelled] | radio-HPLC | human serum | 24 h, 37 °C, serum mix 1:10 v/v |  | radiochemical purity | 86 ± 1.34% |
| N=C(N)NCCC[C@@H]1NC(=O)[C@H](CCCCNC(=O)c2ccc(CNC34CNCCNCC(NCc5ccc(C(=O)NCCCC[C@@H]6NC(=O)[C@@H](Cc7ccc(O)cc7)NC(=O)[C@H](CC(=O)O)NC(=O)CNC(=O)[C@H](CCCNC(=N)N)NC6=O)cc5)(CNCCNC3)CNCCNC4)cc2)NC(=O)[C@@H](Cc2ccc(O)cc2)NC(=O)[C@H](CC(=O)O)NC(=O)CNC1=O [copper-64 labelled] | HPLC | nude mouse, U-87 MG xenograft, kidney | 1 h post injection |  | intact compound | > 95% |
| N=C(N)NCCC[C@@H]1NC(=O)[C@H](CCCCNC(=O)CNC(=O)CNC(=O)CNC(=O)CC[C@H](NC(=O)CCOCCOCCOCCOCCNC(=O)CC[C@H](NC(=O)CN2CCN(CC(=O)O)CCN(CC(=O)O)CCN(CC(=O)O)CC2)C(=O)NCCOCCOCCOCCOCCC(=O)N[C@@H](CCC(=O)NCC(=O)NCC(=O)NCC(=O)NCCCC[C@@H]2NC(=O)[C@@H](Cc3ccccc3)NC(=O)[C@H](CC(=O)O)NC(=O)CNC(=O)[C@H](CCCNC(=N)N)NC2=O)C(=O)NCC(=O)NCC(=O)NCC(=O)NCCCC[C@@H]2NC(=O)[C@@H](Cc3ccccc3)NC(=O)[C@H](CC(=O)O)NC(=O)CNC(=O)[C@H](CCCNC(=N)N)NC2=O)C(=O)NCC(=O)NCC(=O)NCC(=O)NCCCC[C@@H]2NC(=O)[C@@H](Cc3ccccc3)NC(=O)[C@H](CC(=O)O)NC(=O)CNC(=O)[C@H](CCCNC(=N)N)NC2=O)NC(=O)[C@@H](Cc2ccccc2)NC(=O)[C@H](CC(=O)O)NC(=O)CNC1=O [indium-111 labelled] |  | female athymic nude mice, blood | intravenous, 3 µCi, 24 h, U-87 MG glioma xenograft |  | tissue uptake | 0.02 %ID/g |

Some of these lines once more:
| SMILES | test | test system | setting | scale | quantity | value |
| --- | --- | --- | --- | --- | --- | --- |
| N=C(N)NCCC[C@@H]1NC(=O)[C@H](CCCCNC(=O)CNC(=O)CNC(=O)CNC(=O)CC[C@H](NC(=O)CCOCCOCCOCCOCCNC(=O)CC[C@H](NC(=O)CN2CCN(CC(=O)O)CCN(CC(=O)O)CCN(CC(=O)O)CC2)C(=O)NCCOCCOCCOCCOCCC(=O)N[C@@H](CCC(=O)NCC(=O)NCC(=O)NCC(=O)NCCCC[C@@H]2NC(=O)[C@@H](Cc3ccccc3)NC(=O)[C@H](CC(=O)O)NC(=O)CNC(=O)[C@H](CCCNC(=N)N)NC2=O)C(=O)NCC(=O)NCC(=O)NCC(=O)NCCCC[C@@H]2NC(=O)[C@@H](Cc3ccccc3)NC(=O)[C@H](CC(=O)O)NC(=O)CNC(=O)[C@H](CCCNC(=N)N)NC2=O)C(=O)NCC(=O)NCC(=O)NCC(=O)NCCCC[C@@H]2NC(=O)[C@@H](Cc3ccccc3)NC(=O)[C@H](CC(=O)O)NC(=O)CNC(=O)[C@H](CCCNC(=N)N)NC2=O)NC(=O)[C@@H](Cc2ccccc2)NC(=O)[C@H](CC(=O)O)NC(=O)CNC1=O [indium-111 labelled] |  | female athymic nude mice, blood | intravenous, 3 µCi, 24 h, U-87 MG glioma xenograft |  | tissue uptake | 0.02 %ID/g |
